# Published values of several laboratories.
# Every numbered part comes from another study and shows a few of its results, in no order.

# Sample 1 — technique: protein-binding microarray; molecule type: double-stranded DNA, one strand shown; sample: in vitro; tested at: 2540 nM top; notes: 60-bp whole probe; together with: salmon DNA 0.4 mg/ml; reference: random background probes; reading: higher = stronger binding; shared flanks, not repeated: GCCTAGCAC … GTCTTGATTCGCTTGACGCTGCTG
# Target: Interferon regulatory factor 3, full length, phosphomimetic (IRF3, Homo sapiens, UniProt Q14653, residues 1-427, S386D/S396D/S398D/S402D/T404D/S405D)
# Construct (chain): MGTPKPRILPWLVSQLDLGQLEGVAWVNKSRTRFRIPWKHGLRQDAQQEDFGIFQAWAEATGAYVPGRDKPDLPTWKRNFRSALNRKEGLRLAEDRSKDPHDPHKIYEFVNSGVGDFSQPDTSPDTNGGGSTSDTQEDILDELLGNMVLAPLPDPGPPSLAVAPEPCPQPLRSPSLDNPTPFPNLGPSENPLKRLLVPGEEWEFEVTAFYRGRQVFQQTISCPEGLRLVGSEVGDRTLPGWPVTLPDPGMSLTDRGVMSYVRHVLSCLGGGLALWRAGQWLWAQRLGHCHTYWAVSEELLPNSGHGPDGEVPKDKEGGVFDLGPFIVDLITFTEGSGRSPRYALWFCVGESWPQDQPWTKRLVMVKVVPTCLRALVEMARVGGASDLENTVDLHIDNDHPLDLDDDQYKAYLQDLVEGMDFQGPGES
Sequence,fitted relative affinity
TTAGGTTTCGACTTTCGGTCAGTGCTA,3.83 z-score
GACGGATTGGGGTATCGGGACGTGCTA,-0.133 z-score
TTTGGTATCCTACTGCTTTAGTGCTAG,2.92 z-score
GACGAACTGGGGTTACGAGACGTGCTA,-0.492 z-score
TTAGGACTGGGTATAGGTTAGTGCTAG,-0.723 z-score
TTATATATCAGACTGGATTAGTGCTAG,0.605 z-score
CAAGTTTGCCTCCTTCAGTCAGTGCTA,0.503 z-score
ACCTGTATATCTTCAGCGGGGTGCTAG,0.429 z-score
TTAGGTTCCCTTTTCCATTAGTGCTAG,7.47 z-score
TTGGGACTGGACTATCGGTTAGTGCTA,-0.827 z-score
CTCTTTCTCTGCTACCCTTTGGTGCTA,2.74 z-score
TCATTTATGGTATTTTTACTGTGCTAG,1.08 z-score
TTAGGTATCCTATTCCTTTAGTGCTAG,4.72 z-score
GACGATCTCAGACTGGAGAAGTGCTAG,0.267 z-score
TTCAGTCCCCTCTTCTGGATGTGCTAG,0.921 z-score
TCAGATATCGGGACTGGATTAGTGCTA,0.342 z-score
TCAATTGGTTGAACATGACTGTGCTAG,-0.0654 z-score
TTAGATTCCCTTTTCCTTTAGTGCTAG,7.56 z-score
GACGAACTGGTGTTTCGAGACGTGCTA,0.436 z-score
GGTCCTCTCTCTATTCAGAGGTGCTAG,1.78 z-score
TAAGGTCTCCTTCTCCTTTAGTGCTAG,4.05 z-score
GACCGTTTCGGGACTGGGGACGTGCTA,4.47 z-score
TCATATTTAAGACCTATGACTGTGCTA,0.712 z-score
TTAGATATCGGTTTCGATTAGTGCTAG,5.47 z-score
GGGAAAATGGCTTTGCAGATGTGCTAG,-0.853 z-score

# Sample 2 — technique: protein-binding microarray; molecule type: hairpin DNA; sample: in vitro; tested at: not given; reference: not given; reading: higher = stronger binding
# Target: Runt-related transcription factor 3, Runt domain (RUNX3, Homo sapiens, UniProt Q13761, residues 53-186)
# Sequence of UniProt Q13761 (53-186, looked up): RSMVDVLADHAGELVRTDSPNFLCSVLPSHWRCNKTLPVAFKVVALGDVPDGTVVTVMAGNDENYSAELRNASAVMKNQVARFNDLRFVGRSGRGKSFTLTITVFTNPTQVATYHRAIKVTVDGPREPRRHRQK
# Notes: whole hairpin DNA, median over replicate spots
Sequence,median fluorescence
CTCAGTTCGGTGGGCTGGACTCCTGTCCAGCCCACCGAACTGAGACACTC (5mC at 8),4520 a.u.
GAGGCCTGTCGCGGTTGGCCTCCTGGCCAACCGCGACAGGCCTCACACTC (5mC at 31),5200 a.u.
CTCAGTTCTGTGGGCTGGACTCCTGTCCAGCCCACAGAACTGAGACACTC (5mC at 8),4010 a.u.
GAGGCCCAACCGCATCAGCCTCCTGGCTGATGCGGTTGGGCCTCACACTC,6670 a.u.
CTCAGTCGTGTGGGCTGGACTCCTGTCCAGCCCACACGACTGAGACACTC (5mC at 7),4350 a.u.
GAGGCCTGCGGCGGTTGGCCTCCTGGCCAACCGCCGCAGGCCTCACACTC (5mC at 35),5920 a.u.
GAGGCCTCGTGTGGTTGGCCTCCTGGCCAACCACACGAGGCCTCACACTC,4970 a.u.
GAGGCCTGTCGCGATTGGCCTCCTGGCCAATCGCGACAGGCCTCACACTC,5030 a.u.
CTCAGTTCTGTCGGCTGGACTCCTGTCCAGCCGACAGAACTGAGACACTC (5mC at 12),4050 a.u.
GAGGCCTGTTGCGGCGGGCCTCCTGGCCCGCCGCAACAGGCCTCACACTC (5mC at 15 29),7250 a.u.
CTCAGTTCTGTGGCGTGGACTCCTGTCCACGCCACAGAACTGAGACACTC (5mC at 14 30),3850 a.u.
GAGGCCTGTTGTGGTTGGCCTCCTGGCCAACCACAACAGGCCTCACACTC (5mC at 37),5090 a.u.
GAGGCCCAGCCGCAACAGCCTCCTGGCTGTTGCGGCTGGGCCTCACACTC,6060 a.u.
GAGGCCAGTTGTGGTTGGCCTCCTGGCCAACCACAACTGGCCTCACACTC,5590 a.u.
GAGGCCTGTTGGGGTTGGCCTCCTGGCCAACCCCAACAGGCCTCACACTC (5mC at 33),4590 a.u.
GAGGCCTGTCGCGGTTGGCCTCCTGGCCAACCGCGACAGGCCTCACACTC (5mC at 32),5610 a.u.
CTCAGTTCTGTGGGCTGGACTCCTGTCCAGCCCACAGAACTGAGACACTC (5mC at 28),4220 a.u.
CTCAGTGCTGTGGGCTGGACTCCTGTCCAGCCCACAGCACTGAGACACTC (5mC at 38),4250 a.u.
GAGGCCTATTGCGGTTGGCCTCCTGGCCAACCGCAATAGGCCTCACACTC,7010 a.u.
GAGGCCTGTTGCGGTCGGCCTCCTGGCCGACCGCAACAGGCCTCACACTC,9190 a.u.
GAGGCCTGTCGCGCGTGGCCTCCTGGCCACGCGCGACAGGCCTCACACTC (5mC at 30),5570 a.u.
CTCAGTTCTGTGGCGTGGACTCCTGTCCACGCCACAGAACTGAGACACTC,4170 a.u.
GAGGCCTCGTGTGGTTGGCCTCCTGGCCAACCACACGAGGCCTCACACTC (5mC at 36),5120 a.u.
GAGGCCTGTTGCGGCGGGCCTCCTGGCCCGCCGCAACAGGCCTCACACTC (5mC at 29),5710 a.u.
GAGGCCCAACCGCAAAAGCCTCCTGGCTTTTGCGGTTGGGCCTCACACTC,9810 a.u.

# Sample 3 — technique: EMSA with sequencing; molecule type: double-stranded DNA, one strand shown; sample: in vitro; tested at: 10 and 20 nM; reference: negative control set to 0; reading: higher = stronger binding
# Target: Hepatocyte nuclear factor 3-alpha (Foxa1, Mus musculus, UniProt P35582, residues 1-468, full length assumed)
# Notes: whole designed probe, mean of two concentrations, ends assumed
# Target sequence (chain): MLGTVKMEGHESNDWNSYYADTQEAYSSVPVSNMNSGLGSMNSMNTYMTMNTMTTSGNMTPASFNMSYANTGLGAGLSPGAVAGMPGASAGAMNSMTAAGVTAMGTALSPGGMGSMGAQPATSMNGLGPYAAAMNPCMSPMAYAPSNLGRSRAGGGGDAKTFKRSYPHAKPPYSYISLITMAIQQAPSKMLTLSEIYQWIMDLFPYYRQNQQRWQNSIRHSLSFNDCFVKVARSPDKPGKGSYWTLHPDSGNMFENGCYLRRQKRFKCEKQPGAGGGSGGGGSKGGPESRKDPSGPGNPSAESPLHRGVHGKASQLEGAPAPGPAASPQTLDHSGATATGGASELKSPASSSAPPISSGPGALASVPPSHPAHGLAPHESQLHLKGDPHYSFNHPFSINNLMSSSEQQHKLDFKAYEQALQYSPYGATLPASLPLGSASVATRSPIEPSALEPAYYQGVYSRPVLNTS
Sequence,normalised bound fraction [ratio]
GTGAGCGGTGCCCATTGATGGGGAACTCTATATAATTTCCTTTTTCATTTTTTAAATAAATAAAAATATTAAAAAGCTAGCTTGTGTTCTACTTAGTTAATATTTAAGAGTCTGTTCATGTTTACACTGGAAAGGCAAGACTGGTATCATTGTTGATATTATTGTTATAATGTGGGAGACTCTTAGAGGCAAATCCAGGATTTTCTTCGTGTATCAAATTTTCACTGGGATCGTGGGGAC,0.351
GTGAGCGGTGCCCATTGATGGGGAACATTTGATACACGAAGAAAATCCTGGATTTGCCTCTAAGAGTCTCCCACATTATAACAATAATATCAACAATGATACCAGTCTTGCCTTTCCAGTGTAATCTTGAACAGACTCTTAAATATTAACTAAGTAGAACACAAGCTAGCTTTTTAATATTTTTATTTATTTAAAAAATGAAAAAGGAAATTATATAGATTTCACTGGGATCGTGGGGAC,0.362
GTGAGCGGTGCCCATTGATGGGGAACACCCATGTTTTAATAATCCAGAACATCAGTTGAGTACAAAATCTCTTTTTCTAATTAAGAATGTTTGACCACATCAGCGAGTTCCTTGCCAACTGTTTACTTAGCCTCAGCAGATATGATGGGCCAGAATTTACACAGAAAAATACCTTCAAATATATTTAGTTTCTTCAGTGCTTTTAGATTGAGAAAATGATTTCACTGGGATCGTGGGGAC,0.427
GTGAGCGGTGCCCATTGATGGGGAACTTTCCAGCCCTTAGTTTCTGGCATTTAACCTGACTCTGGTCCCTGAATGGCATGGGAGTGCTTTCAACCACAGGTTTCCACATTCATGCCACTTGTTTGCTTTTTGATCTACCTGACTCATTCAGAGATCTTTATTTGCTTTGTGTTTCCAATGGAGAAAGAGCTTGGGAAGGGAGGATCCTAATTGTCTAAATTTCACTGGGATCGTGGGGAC,0.492
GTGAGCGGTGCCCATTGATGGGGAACATTGAAGAACAAACAGCTATTGCCCAGCCCAGAAAGAGCCACCTCTTGGTAACTCCTGTGTGTGACATAAACTCATACCAGCAGTATCACAGAGCAAACAGCATAAACTCTGAATGCCACTCACTATTTGCTTTGCCAATAATAGTTCCAGGATGTACTGTTCTTCCAATGGGCTTAACAAACATTTCGATGCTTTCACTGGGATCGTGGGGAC,0.382
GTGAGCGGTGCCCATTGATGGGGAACATCTTCCCCCTCTTCCTTGCCCCACCAGCTCACCTTCCCGGGTCAAAGTAAACAAGTGTTTACTTTGAAGCCGGCATTCGTTAACCCTCTTCTGGCGCAAACTGCACATTGGTCTGGATCTAACATGGTCCTTTGGCGACGCCAGGCTCCGGGAGAGCAAAGCACCGTGTCAGGGCCATGATCCGGGGTGGCCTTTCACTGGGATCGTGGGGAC,0.424

# Sample 4 — technique: protein binding microarray; molecule type: double-stranded DNA, one strand shown; sample: in vitro; tested at: not given; reference: not given; reading: higher = stronger binding
# Target: Histone acetyltransferase KAT6A, winged helix 2, GST fusion (KAT6A, Homo sapiens, UniProt Q92794, residues 85-181)
# Notes: 8-mer, flanks averaged, mean of 2 arrays, mostly near background
# Target sequence (chain): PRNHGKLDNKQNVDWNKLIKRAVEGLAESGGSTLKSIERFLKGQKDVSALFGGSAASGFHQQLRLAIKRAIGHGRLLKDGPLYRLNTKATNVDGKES
Sequence,E-score
ATACGGAC,-0.079
GTCATGAC,0.0638
AATGTAAG,-0.127
AGAAGCCG,0.214
GTTAAGAA,0.101
AGGAACCG,-0.0368
ATTGTCGC,1.5e-05
CTTTTAAC,-0.125
CCAGTAAG,-0.117
GCAAGTCC,-0.103
AACCGCGA,0.286
CCATGTAG,-0.0964
GCCAGAAA,0.2
ATACACGA,0.0338
AGGCCAAA,-0.0152
TAGTGAAA,0.0244
AAACTGGT,0.106
GCATGGGA,-0.125
AGAAACAC,0.0723
AGTCTGGA,0.0314
GCACTTTA,-0.00128
ATTGAGGC,0.0776
GTAGTTTA,0.0803
GACCAAGA,0.0327

# For quick reference, copied from above (sample 1):
Sequence,fitted relative affinity
TCAGATATCGGGACTGGATTAGTGCTA,0.342 z-score
TCATATTTAAGACCTATGACTGTGCTA,0.712 z-score
GACGAACTGGTGTTTCGAGACGTGCTA,0.436 z-score
TTGGGACTGGACTATCGGTTAGTGCTA,-0.827 z-score
TTCAGTCCCCTCTTCTGGATGTGCTAG,0.921 z-score
GACGAACTGGGGTTACGAGACGTGCTA,-0.492 z-score
CAAGTTTGCCTCCTTCAGTCAGTGCTA,0.503 z-score
TTAGGTTCCCTTTTCCATTAGTGCTAG,7.47 z-score
